Experimental data gathered from unrelated publications.
Every numbered part comes from another study and shows a few of its results, in no order.

Block 1
Target: Histone acetyltransferase KAT6A, winged helix 1, GST fusion (KAT6A, Homo sapiens, UniProt Q92794, residues 1-85)
Technique: protein binding microarray
Form: double-stranded DNA, one strand shown
Matrix: in vitro
Tested at: not given
Notes: 8-mer, flanks averaged, mean of 2 arrays, mostly near background
Relative to: not given
Direction: higher = stronger binding
Residues (chain): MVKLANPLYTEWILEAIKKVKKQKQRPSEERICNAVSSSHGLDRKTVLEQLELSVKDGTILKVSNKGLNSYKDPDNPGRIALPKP
Sequence	E-score
AGGCCTGC	0.0232
ATATTCGC	-0.0976
AACCTGCG	0.14
AACACAGA	-0.186
GAATCATC	-0.14
CGTTGCGA	0.0715
AATTACTC	-0.0702
AACGTTTC	-0.23
ACGTTCAT	-0.134
CCCAATCC	-0.138
GCTTAGAC	0.0877
CGTATCCA	-0.178
AGGTAAAC	-0.0422
ATCGTCTC	-0.0557
CCCCCGCC	0.28
CGTGAACA	0.116
AGTAGCGG	0.238
AATGACGT	-0.0749
ATACGGCG	0.386
GGAATCGA	0.0145
ATGAACGC	0.0884
ATCAATAG	-0.202
CGCGAGTC	0.229
GTGTCAGA	-0.141
CAGAAGAC	-0.298

Block 2
Target: RING finger protein unkempt homolog, zinc fingers 1-6, GST-SBP tag (UNK, Homo sapiens, UniProt Q9C0B0, residues 30-357)
Technique: RNA Bind-n-Seq
Form: RNA
Matrix: in vitro
Tested at: not given
Notes: RNA with constant flanks, ends assumed
Relative to: input RNA pool
Direction: higher = stronger binding
Constant ends, left off below: GGGAGUUCUACAGUCCGACGAUC … CAACAGAGGAUUGAGCAUCA
Residues (chain): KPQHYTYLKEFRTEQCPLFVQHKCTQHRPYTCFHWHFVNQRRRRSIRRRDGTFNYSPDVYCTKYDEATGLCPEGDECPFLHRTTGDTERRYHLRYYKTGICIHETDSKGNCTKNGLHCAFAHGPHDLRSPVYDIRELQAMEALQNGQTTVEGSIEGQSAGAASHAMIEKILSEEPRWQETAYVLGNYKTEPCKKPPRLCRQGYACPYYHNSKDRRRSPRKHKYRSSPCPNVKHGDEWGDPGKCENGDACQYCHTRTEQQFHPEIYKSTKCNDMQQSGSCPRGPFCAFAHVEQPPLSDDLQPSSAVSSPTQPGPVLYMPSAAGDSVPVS
Sequence	bound/input enrichment [ratio]
AUCCCAAUUAUGGACACCGGUGAAAACCCAGAGGUGCCCUUCCCUCGGGACAUGAUCGACUCCGAGGCCAAUUUCGAGAAGAUUGAAAAUGAACUGAAGGAAAUCAACACUAACCAGGAA	0.129
UAGCAGAGGUAAGAAUAUGUAUUCAUAUAAUCUGCCUACUUUUGAGUUCUCAUAUUAACAUUCCGAUAACAUAUGAAGUAUGGCCCCCUUGGAUCCUUGUUUUUAAGUUACUUUCGAUGU	0.298
UUGGAUGUGACAGUGCAGUCCUUUGGAUGGUCCGAUAGAGCAAAGGCAAAAACAGAUAACACCGCAAGAAUUUACCAGCCCAAGCGUUAUGCUCUGUCGCCCAAGACAACAGUCACAUUG	0.0703
GAUGUAGUAGUCAACAUUUUUAUUAAUAGUUUUGGAUCCAUUCAAGAGACAACAAUGGACUACCGAGUUAACAUUUUCUUGAGACAGAAAUGGAAUGACCCCAGACUCAAGCUACCUAGU	1.87
ACACCCAGUCGCCGAGUCCUGCCCUGUUCUGGCCGCCGGCCCCAACUGGACCUCGACAUCCUCCGCAGCCUCAUCAACUUGUGUGAUAGUCCUGUGUCCCCAUCUGAGGCCAGCCGAACA	0.0992
UUUUCAUUCAACCCCAUGCUGGAUAAAGAAGAAAGAGAGCAAGGCUGGGUGCUGAUCGAUCUCCGUGAAGAAUACACGCGGAUGGGCCUCCCUAAUCAUUACUGGCAGCUCAGCGAUGUG	0.118
GAACCGAAAGGCCAAAUCCCCUCCUCCCUUCUCCUGCUUCUGCCAACCGGAAGCACAGAAAACCCGAACUUCAUUGAUUUUGUUUUUUAAAAGAUACACUGAUUUAACAUCUGAUAGGAA	0.405
GUUACCUGUGUUGCUGCCUCUCCCCACAAAGACUCUGUGUUUCUUUCAUGUAGUGAGGACAGCCGAAUUUUGCUCUGGGAUACCCGCUGUCCCAAGCCGGCAUCACAGAUGGCCUGCAAU	0.344
CUAAAUACCAUUCCAUUGUUUGUGCAGCUGCUUUAUUCUCCCAUUGAAAACAUCCAAAGAGCCGCUGCAGGGGUCCUCUGUGAACUUGCUCAGGACAAGGAAGCUGCAGAAGCUAUUGAA	0.408
GGGCAUAUACAGCUUAUAAUUCCUGGAGAAUCUGCUUGUUUUGCGUGUGCUCCACCACUUGCCGUUGCUGCAAAUAUUGAUGAAAAGACUCUGAAACGAGAAGGUGUUUGUGCAGCCAGU	0.286
CCCACCACAAAAAUUCAGAUCAGGUUGGCAGAUGGAAGUCGUCUCGUACAGAGAUUCAACCGCACACACCGGAUUCUGGAUGUACGAGACUUUAUAGUACGGUCACGUCCUGAAUUUGCG	0.174

Block 3
Target: Prothrombin, mature alpha-thrombin (F2, Homo sapiens, UniProt P00734)
Technique: aptamer microarray, sandwich
Form: DNA with 2'F-ANA
Matrix: in vitro
Tested at: 200 nM
Notes: whole 15-mer aptamer, many near background
Together with: Cy3 exosite-II aptamer, 400 nM
Direction: higher = stronger binding
Sequence: GGTTGGTGTGGTTGG
Modification	mean fluorescence intensity
2'F-ANA at 4 5 7 8 11	62.9 a.u.
2'F-ANA at 2 6 7 8 9 11 12 14 15	238 a.u.
2'F-ANA at 1 2 4 5 6 7 9 10 12	293 a.u.
2'F-ANA at 4 9 12 14 15	110 a.u.
2'F-ANA at 1 3 4 6 7 8 11 13 15	151 a.u.
2'F-ANA at 2 4 8 9 10 11 13 15	125 a.u.
2'F-ANA at 1 2 4 5 9 10 11 13 14	60.5 a.u.
2'F-ANA at 1 5 6 13 14 15	57.8 a.u.
2'F-ANA at 2 9 11 12 13	523 a.u.
2'F-ANA at 2 5 7 8 13 15	59.8 a.u.
2'F-ANA at 1 2 5 7 10 11 12 15	48.5 a.u.
2'F-ANA at 1 3 8 9 10 11 12 14 15	62.9 a.u.
2'F-ANA at 1 2 3 4 6 7 8 10 11 14	52.3 a.u.
2'F-ANA at 1 3 4 6 9 10	64.4 a.u.
2'F-ANA at 2 4 5 6 7 10 11 12 15	52.4 a.u.
2'F-ANA at 1 2 3 7 10 14	52.3 a.u.
2'F-ANA at 2 3 4 5 6 9 10 13 14	83.4 a.u.

Block 4
Target: RNA binding protein fox-1 homolog 2, RRM domain, GST-SBP tag (RBFOX2, Homo sapiens, UniProt O43251-10, residues 100-194)
Technique: RNA Bind-n-Seq
Form: RNA
Matrix: in vitro
Tested at: 365 nM
Notes: natural RNA segment, single round, ends assumed
Relative to: no-protein control
Direction: higher = stronger binding
Constant ends, left off below: GGGAGUUCUACAGUCCGACGAUC … UGGAAUUCUCGGGUGCCAA
Construct (chain): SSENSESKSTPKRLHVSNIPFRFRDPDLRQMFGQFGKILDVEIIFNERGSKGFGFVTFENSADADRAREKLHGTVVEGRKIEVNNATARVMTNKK
Sequence	RBNS enrichment (R)
UUAUCUUUCUCUCUGCCAUUUGGAACUUUAUUCCCUAACCCAGGUUUUGCUGCUGUGAAACAGCGUUGAUGAACACUAAAUAUUAAUCUGAGAUAGCUGGAUUGUAUAUA	0.284
CGGAGAUCCAGGGGCCUCCAGCUGCUCCUUUCUUCUGUGUCCUGUUAUUUGGGUCCCAGAUGGAGCCCACCGCGGACUUGCCUUGCAUUCCUCAGGCCAGGCAAGCCUGA	0.582
GUGACAUUAGUUCCUUCUUCUGCUAUCCCCAAAACCUCAGAAACCUCAUAAUUCUUAACACCUGGCAUUUCCAUUUCUAAAGAUGGACAGGCCCUUUGGCGUGGUACCAA	0.793
AGAGUUUAAAUGUUGACGGCGUUUGCUAUGUAUAAUUGCCCCUACACCGUUAUAAAGUGUUUUCAGGAAUUUCAGUGCCAUCCUUCCUUUUUCCUCCCUCAGUUACGUGG	0.729
CUGAUUAGUGGUAGUUAUUUGCUGGGAACUGACAAAGUUCAUCUUGGCAAUGAUUAAACCCAGCUUAGCAACGUGAGAAUUAUUUUUUUUUUUCUAAGAAGAAAAUUCAG	0.53
UUUUCUCUUGGUUGUAGAGUGGCCCAGAAUUGCAUUCUGAAUGAAUAAAGGUUAAAAAAAAAUCCCCAGUGCAUGUAUUUCAGUUCUCUAAGAUUUUUGGUCUGGCAUUG	34.9
UAAAUGCUCUUAUUUUUCCAACAGCUUAACUACUCCUAGUUCAAGAGUGUCCCUUAGCCUUCCUUGCAACCAGAGUAUUUUUGUACAGAUUUGCUUUCUCCUAAACAAAC	0.54
AUGCAGUGUGAGGGCCCAAAGCUUAUCCUCAAAUAGUCCUGUUUGCCAGGCUCAGUUCCCACCCACACCAGCACUUCCCUUCCUUCUGGUUUUCUGCCUGUGUGCUGCCC	0.471
AUAAAAUAGUUUUCACAUUUUCAAUAUGCAAGUUUUGAAAAUGAGGAUUUGCCUGGACUUUUUUAUAUUUAAUGCUGGGAAACCUUCCUCAUAUUAACAACCCAUGUAUG	4.68
CUCUCGCUGUCCUCACUUUGCAGGGGCUCCUCCUCAACAUUUGCAUGCACCUGCAAGAAUUGGGAAGAAAGAGCAUUUAUUAGGCACUGUAGCAAUUUGCAUUUUAAAAU	2.42
UAAAAUAAAGACAGCUUUGGAAAGGAGAAGGCACUUUAAAGACAUGAAACCUCUUAUUACAUGCUCUUGUAUGUUUUUAAGCAUAAUAAGCUAACUGGAUUUGGGUAUAU	0.477
UCAGACCAAACUAAGUGCUUCCAGAUCCUUUCGGUGCAAUUUCAGAGCUGUGCCAGAUGCUAGACACAUUUAAUAGCUGUCAGAUCAGCUCAUGAUCAUAUCAUGAGAAA	0.246

Block 5
Target: Sal-like protein 4, full length isoform B (SALL4, Homo sapiens, UniProt Q9UJQ4-2, residues 1-616)
Technique: universal PBM
Form: double-stranded DNA, one strand shown
Matrix: in vitro
Tested at: not given
Notes: 8-mer, flanks averaged, mean of replicates
Direction: higher = stronger binding
Sequence	E-score
TCATAAAA	0.373
GAATGACC	-0.117
CCGTAGAC	-0.174
CAATTTTC	0.193
CCTGGGGC	-0.465
ACAGGTGG	-0.205
GATTACCA	-0.13
CCAGCAGC	-0.28
CGGAGATA	0.0203
GGAGTCAA	-0.0883
CGAATAAG	0.0357
CGTAGCAA	0.0265
CATCTAAC	0.0523
AAGTGGAG	0.129
CGATGGCA	-0.22
ATCGTGTG	0.0986
CATAGCTA	0.135
CTGCCATA	-0.0132
CCCCGGGG	-0.459
AAAGCCAC	5e-05
AGGCCTCA	-0.205
GCTATAAA	0.296
ATTTCAAA	0.303
AGCCTGAT	0.0114
CCTGACAA	-0.0959

Repeated from above (block 3):
Modification	mean fluorescence intensity
2'F-ANA at 4 9 12 14 15	110 a.u.
2'F-ANA at 1 3 4 6 7 8 11 13 15	151 a.u.
2'F-ANA at 2 4 8 9 10 11 13 15	125 a.u.
2'F-ANA at 1 2 4 5 9 10 11 13 14	60.5 a.u.
2'F-ANA at 1 5 6 13 14 15	57.8 a.u.
2'F-ANA at 2 9 11 12 13	523 a.u.
2'F-ANA at 2 5 7 8 13 15	59.8 a.u.
2'F-ANA at 1 2 5 7 10 11 12 15	48.5 a.u.
2'F-ANA at 1 3 8 9 10 11 12 14 15	62.9 a.u.
2'F-ANA at 1 2 3 4 6 7 8 10 11 14	52.3 a.u.
2'F-ANA at 1 3 4 6 9 10	64.4 a.u.
2'F-ANA at 2 4 5 6 7 10 11 12 15	52.4 a.u.
2'F-ANA at 1 2 3 7 10 14	52.3 a.u.
